Experimental data from different studies.
Each line is one published result; not all experiments were run side by side.
SLC47A1: Multidrug and toxin extrusion protein 1 (SLC47A1, Homo sapiens, UniProt Q96FL8)
Chain of UniProt Q96FL8 (whole entry, looked up): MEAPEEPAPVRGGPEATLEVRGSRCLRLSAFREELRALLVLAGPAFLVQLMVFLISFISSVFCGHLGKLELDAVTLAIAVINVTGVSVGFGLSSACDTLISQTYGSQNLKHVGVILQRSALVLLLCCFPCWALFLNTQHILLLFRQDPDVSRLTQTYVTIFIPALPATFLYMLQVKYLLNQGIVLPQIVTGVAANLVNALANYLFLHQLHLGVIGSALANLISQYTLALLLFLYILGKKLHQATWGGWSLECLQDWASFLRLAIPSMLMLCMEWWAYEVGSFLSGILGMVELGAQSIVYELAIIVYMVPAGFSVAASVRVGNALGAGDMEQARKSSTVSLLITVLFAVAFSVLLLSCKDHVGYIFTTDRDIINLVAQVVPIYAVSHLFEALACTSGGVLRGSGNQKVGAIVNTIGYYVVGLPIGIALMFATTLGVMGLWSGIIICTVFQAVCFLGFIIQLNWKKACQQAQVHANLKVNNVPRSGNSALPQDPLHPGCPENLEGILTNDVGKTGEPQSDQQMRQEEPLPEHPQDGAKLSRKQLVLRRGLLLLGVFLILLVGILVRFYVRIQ
KCNH2: Voltage-gated inwardly rectifying potassium channel KCNH2 (KCNH2, Homo sapiens, UniProt Q12809)
Chain of UniProt Q12809 (whole entry, looked up): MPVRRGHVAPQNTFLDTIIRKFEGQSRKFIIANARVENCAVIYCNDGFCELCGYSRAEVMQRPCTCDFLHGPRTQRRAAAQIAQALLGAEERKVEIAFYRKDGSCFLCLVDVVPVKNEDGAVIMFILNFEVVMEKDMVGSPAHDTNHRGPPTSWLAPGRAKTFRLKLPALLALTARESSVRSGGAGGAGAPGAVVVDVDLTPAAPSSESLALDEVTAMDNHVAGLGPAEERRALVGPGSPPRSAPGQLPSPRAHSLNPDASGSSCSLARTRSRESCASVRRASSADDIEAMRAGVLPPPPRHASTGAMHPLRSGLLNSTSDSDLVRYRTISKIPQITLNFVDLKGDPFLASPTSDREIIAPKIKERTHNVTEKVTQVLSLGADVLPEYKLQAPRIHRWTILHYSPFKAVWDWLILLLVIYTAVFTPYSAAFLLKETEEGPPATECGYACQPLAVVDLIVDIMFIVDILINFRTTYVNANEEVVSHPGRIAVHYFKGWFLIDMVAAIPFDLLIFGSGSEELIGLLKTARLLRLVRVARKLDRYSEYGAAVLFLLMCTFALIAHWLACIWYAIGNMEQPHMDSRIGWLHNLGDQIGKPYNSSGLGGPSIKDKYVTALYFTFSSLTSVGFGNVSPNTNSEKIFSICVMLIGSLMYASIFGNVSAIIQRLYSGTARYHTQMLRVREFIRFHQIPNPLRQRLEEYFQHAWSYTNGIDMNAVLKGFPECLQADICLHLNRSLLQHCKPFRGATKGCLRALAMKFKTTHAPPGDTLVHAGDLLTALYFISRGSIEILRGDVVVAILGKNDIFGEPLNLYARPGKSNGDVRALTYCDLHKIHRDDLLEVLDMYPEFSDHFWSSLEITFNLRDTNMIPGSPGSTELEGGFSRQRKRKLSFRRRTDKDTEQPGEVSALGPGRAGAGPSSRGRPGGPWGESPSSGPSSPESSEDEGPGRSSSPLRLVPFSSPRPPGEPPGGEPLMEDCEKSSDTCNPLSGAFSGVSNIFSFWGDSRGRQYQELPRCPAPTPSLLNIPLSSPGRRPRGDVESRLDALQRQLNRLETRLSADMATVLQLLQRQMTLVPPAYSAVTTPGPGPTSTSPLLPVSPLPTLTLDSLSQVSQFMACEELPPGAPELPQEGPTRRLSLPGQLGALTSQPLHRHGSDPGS
CYP1A2: Cytochrome P450 1A2 (CYP1A2, Homo sapiens, UniProt P05177)
Chain of UniProt P05177 (whole entry, looked up): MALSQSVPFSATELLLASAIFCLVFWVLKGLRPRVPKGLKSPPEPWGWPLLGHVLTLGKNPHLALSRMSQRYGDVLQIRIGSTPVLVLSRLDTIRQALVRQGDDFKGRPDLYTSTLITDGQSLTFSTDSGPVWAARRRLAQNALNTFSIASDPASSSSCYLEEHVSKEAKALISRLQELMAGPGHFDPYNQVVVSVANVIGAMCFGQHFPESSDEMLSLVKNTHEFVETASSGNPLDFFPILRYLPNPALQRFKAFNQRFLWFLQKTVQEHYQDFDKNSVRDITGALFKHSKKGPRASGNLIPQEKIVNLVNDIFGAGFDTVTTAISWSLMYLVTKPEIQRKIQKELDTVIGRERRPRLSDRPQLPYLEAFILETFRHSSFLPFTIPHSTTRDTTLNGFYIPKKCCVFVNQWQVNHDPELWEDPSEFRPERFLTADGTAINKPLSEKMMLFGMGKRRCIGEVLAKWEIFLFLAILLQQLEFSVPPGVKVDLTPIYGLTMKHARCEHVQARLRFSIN
Chain of UniProt P08183 (whole entry, looked up): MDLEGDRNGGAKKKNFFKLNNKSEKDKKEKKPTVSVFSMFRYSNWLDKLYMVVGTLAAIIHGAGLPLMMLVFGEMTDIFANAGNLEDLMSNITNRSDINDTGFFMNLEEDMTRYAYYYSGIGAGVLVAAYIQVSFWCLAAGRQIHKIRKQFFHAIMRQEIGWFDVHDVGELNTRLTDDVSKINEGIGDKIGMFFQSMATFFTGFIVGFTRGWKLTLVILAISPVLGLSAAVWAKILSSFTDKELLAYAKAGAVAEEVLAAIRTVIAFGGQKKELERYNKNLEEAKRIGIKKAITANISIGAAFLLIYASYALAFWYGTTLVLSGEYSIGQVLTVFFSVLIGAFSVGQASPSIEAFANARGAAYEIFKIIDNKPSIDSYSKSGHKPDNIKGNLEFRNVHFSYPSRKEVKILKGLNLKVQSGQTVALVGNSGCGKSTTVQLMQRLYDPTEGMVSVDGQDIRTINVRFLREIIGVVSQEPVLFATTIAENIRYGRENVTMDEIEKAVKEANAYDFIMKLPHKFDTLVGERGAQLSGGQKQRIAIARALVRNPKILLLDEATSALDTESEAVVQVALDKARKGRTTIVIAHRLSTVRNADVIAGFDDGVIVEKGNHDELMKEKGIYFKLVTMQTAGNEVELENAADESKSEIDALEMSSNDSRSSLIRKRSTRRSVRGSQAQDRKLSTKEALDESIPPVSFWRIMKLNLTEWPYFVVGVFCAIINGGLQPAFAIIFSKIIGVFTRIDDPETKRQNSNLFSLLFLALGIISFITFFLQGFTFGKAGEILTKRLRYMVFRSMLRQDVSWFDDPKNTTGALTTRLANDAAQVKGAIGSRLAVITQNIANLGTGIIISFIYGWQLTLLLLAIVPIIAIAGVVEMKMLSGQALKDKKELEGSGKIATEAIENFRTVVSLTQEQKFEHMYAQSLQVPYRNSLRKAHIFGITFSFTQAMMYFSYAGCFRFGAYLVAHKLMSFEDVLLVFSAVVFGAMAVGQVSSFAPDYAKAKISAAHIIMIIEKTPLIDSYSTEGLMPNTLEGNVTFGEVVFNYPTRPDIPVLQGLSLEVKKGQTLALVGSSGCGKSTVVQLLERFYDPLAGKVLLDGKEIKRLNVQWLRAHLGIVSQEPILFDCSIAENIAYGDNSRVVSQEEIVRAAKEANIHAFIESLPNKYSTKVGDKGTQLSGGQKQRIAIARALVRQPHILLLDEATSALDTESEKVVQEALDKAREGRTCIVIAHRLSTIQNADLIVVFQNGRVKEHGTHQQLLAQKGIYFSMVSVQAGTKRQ
Chain of UniProt P46059 (whole entry, looked up): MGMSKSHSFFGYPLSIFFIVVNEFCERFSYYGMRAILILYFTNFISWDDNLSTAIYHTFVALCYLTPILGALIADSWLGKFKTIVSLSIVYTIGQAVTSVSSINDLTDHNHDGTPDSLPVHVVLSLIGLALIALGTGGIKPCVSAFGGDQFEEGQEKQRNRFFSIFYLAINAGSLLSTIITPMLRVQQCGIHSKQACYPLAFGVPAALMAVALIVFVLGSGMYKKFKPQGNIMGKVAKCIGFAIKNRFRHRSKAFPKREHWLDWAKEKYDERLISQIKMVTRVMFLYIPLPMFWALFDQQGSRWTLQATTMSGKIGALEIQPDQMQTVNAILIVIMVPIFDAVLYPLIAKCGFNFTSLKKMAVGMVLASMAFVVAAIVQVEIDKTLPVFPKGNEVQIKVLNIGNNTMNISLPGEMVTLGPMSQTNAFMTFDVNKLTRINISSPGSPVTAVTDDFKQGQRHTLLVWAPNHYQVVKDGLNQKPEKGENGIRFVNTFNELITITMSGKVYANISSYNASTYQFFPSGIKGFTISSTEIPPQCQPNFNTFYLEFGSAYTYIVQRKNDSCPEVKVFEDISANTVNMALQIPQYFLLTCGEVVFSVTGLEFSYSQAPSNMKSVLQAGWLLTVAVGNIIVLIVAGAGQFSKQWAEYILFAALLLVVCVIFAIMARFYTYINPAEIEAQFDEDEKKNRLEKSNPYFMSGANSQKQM
Chain of UniProt P10635 (whole entry, looked up): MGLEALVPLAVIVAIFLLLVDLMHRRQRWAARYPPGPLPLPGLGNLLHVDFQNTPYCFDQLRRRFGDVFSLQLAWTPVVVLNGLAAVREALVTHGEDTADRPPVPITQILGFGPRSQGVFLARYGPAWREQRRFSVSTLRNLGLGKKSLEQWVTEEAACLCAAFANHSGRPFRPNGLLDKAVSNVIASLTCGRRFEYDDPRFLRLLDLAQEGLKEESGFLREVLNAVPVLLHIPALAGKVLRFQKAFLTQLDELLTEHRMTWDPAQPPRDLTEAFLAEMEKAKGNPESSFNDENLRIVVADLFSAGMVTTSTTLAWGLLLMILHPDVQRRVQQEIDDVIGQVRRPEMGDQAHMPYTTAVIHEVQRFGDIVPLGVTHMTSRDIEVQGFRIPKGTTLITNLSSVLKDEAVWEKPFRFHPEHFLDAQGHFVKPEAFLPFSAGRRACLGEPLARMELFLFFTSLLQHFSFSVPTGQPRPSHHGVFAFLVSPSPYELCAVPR

For `CCS(=O)(=O)N1CC(CC#N)(n2cc(-c3ncnc4[nH]ccc34)cn2)C1`, the inhibition was 49.1% (SLC47A1; transport, inhibitor; 50 µM, added: metformin).
With `O=c1n(CCCN2CCN(c3cccc(Cl)c3)CC2)nc2ccccn12` the IC50 was 134 µM (bile salt export pump (Macaca fascicularis, UniProt D2CFL3); inhibitor; 1 h).
`C[C@H](NC(=O)[C@H](Cc1cnc[nH]1)NC(=O)[C@H](CO)NC(=O)[C@@H](N)CC(=O)O)C(=O)N[C@@H](CCCCN)C(=O)N[C@@H](CCCNC(=N)N)C(=O)N[C@@H](Cc1cnc[nH]1)C(=O)N[C@@H](Cc1cnc[nH]1)C(=O)NCC(=O)N[C@@H](Cc1ccc(O)cc1)C(=O)N[C@@H](CCCCN)C(=O)N[C@@H](CCCNC(=N)N)C(=O)N[C@@H](CCCCN)C(=O)N[C@@H](Cc1ccccc1)C(=O)N[C@@H](Cc1cnc[nH]1)C(=O)N[C@@H](CCC(=O)O)C(=O)N[C@@H](CCCCN)C(=O)N[C@@H](Cc1cnc[nH]1)C(=O)N[C@@H](Cc1cnc[nH]1)C(=O)N[C@@H](CO)C(=O)N[C@@H](Cc1cnc[nH]1)C(=O)N[C@@H](CCCNC(=N)N)C(=O)NCC(=O)N[C@@H](Cc1ccc(O)cc1)C(=O)O`: “intact peptide remaining” 50.4% (Secreted aspartic protease 2 (SAP2, Candida albicans, UniProt P0DJ06); proteolytic degradation, gel densitometry; 150 µg/mL, 2 h, pH 7.4, added: SAP2 0.1 µg/mL).
Under hERG inhibition, `COc1cc(N2CC[C@@]3(O)C(=O)c4cc(C)c(C)cc4N=C23)ccn1` is recorded as “negative” (KCNH2; patch clamp; CHO; 10 µM).
For `CCOc1ccc2cc(-c3nn(CC4CCN(C)CC4)c4ncnc(N)c34)ccc2n1`, the EC50 was 10 µM (KCNH2; thallium flux, inhibitor).
The inhibition of `CC(C)(O)c1ccccc1CC[C@@H](SCC1(CC(=O)O)CC1)c1cccc(/C=C/c2ccc3ccc(Cl)cc3n2)c1` is reported as 25% (CYP1A2; inhibitor; human liver microsomes; 10 µM, pH 7.4, added: phenacetin).
With `CCN(CC)CCCC(C)Nc1ccnc2cc(Cl)ccc12` (stereo not drawn) the inhibition was 114% (SLC47A1; transport, inhibitor; transiently transfected cells; 100 µM, 10 (unit not given), added: metformin).
For `CC(C)CC(=O)OC[C@H]1O[C@@](C#N)(c2ccc3c(N)ncnn23)[C@H](O)[C@@H]1O`, “Papp A to B” read 0.187 ×10⁻⁶ cm/s (ABCB1 (Homo sapiens, UniProt P08183); Caco-2; 9 µM, 2 h).
With `S=C=NCCc1ccccc1` the inhibition was 74% (Cytochrome P450 2D6 (CYP2D6, Homo sapiens, UniProt P10635); enzyme activity; human liver microsomes; concentration not given, added: dextromethorphan).
`CC1(C)[C@H](C(=O)OCc2cccc(Oc3ccccc3)c2)[C@@H]1C=C(Cl)Cl`: “enzyme contribution to CLint” 2.19% (human CYP2C9; IVIVE from expressed enzymes; human, liver, in vivo scaled; 0.1 µM, age-specific).
With `CN(C)C(=O)COC(=O)Cc1ccc(OC(=O)c2ccc(NC(=N)N)cc2)cc1` the inhibition was 102% (SLC47A1; transport, inhibitor; transiently transfected cells; 100 µM, 10 (unit not given), added: metformin).
`CN(C(=O)n1cnc(-c2ccc[n+]([O-])c2)c1)C1CCCCC1` — result for “inhibition of binding”: 6% (KCNH2; radioligand binding; 10 µM, human channel, added: [3H]astemizole).
Under uptake, `CN(CC(=O)O)C(=O)CN` is recorded as “decreased” (SLC15A1 (Homo sapiens, UniProt P46059); inhibitor; Caco-2; 10 mM, added: oseltamivir).
`COc1cc2nc(N3CCN(C(=O)c4ccco4)CC3)nc(N)c2cc1OC` gave an inhibition of 87.8% (SLC47A1; transport, inhibitor; transiently transfected cells; 100 µM, 10 (unit not given), added: metformin).
For `CCCC[C@H]1C(=O)N(C)[C@@H](CCCC)C(=O)N[C@@H](CCCCNC(=O)CN2CCN(CC(=O)O)CCN(CC(=O)O)CC2)C(=O)N[C@H](C(=O)NCC(N)=O)CSCC(=O)N[C@@H](Cc2ccc(O)cc2)C(=O)N(C)[C@@H](C)C(=O)N[C@@H](CC(N)=O)C(=O)N2CCC[C@H]2C(=O)N[C@@H](Cc2c[nH]cn2)C(=O)N[C@@H](CCC(=O)O)C(=O)N2C[C@H](O)C[C@H]2C(=O)N[C@@H](Cc2c[nH]c3ccccc23)C(=O)N[C@@H](CO)C(=O)N[C@@H](Cc2cn(CC(=O)O)c3ccccc23)C(=O)N1C` [gallium-68 labelled], the tumour uptake was 0.8 %ID/g (CD274 (Homo sapiens, UniProt Q9NZQ7); PET; humanised NOG-EXL mice, U-87 MG xenograft; day D1 after antibody, added: anti-PD-L1 antibody 10 mg/kg).
The inhibition of `CCC[S+]([O-])c1ccc2[nH]c(NC(=O)OC)nc2c1` (stereo not drawn) is reported as 22% (CYP1A2; inhibitor; human liver microsomes; 10 µM, pH 7.4, added: phenacetin).
The inhibition of `CCCCc1nc(Cl)c(CO)n1Cc1ccc(-c2ccccc2-c2nn[nH]n2)cc1` is reported as 28.6% (SLC47A1; transport, inhibitor; transiently transfected cells; 100 µM, 10 (unit not given), added: metformin).
`CS(=O)(=O)Nc1ncn(-c2cc(F)c(COc3ccc(OS(=O)(=O)F)cc3)c(F)c2)n1` gave an IC50 of > 50 µM (CYP1A2).
With `CCC(CC)COC(=O)[C@H](C)N[P@](=O)(OC[C@H]1O[C@@](C#N)(c2ccc3c(N)ncnn23)[C@H](O)[C@@H]1O)Oc1ccccc1` the inhibition was 85.8% (SLC47A1; transport, inhibitor; transiently transfected cells; 100 µM, 10 (unit not given), added: metformin).
With `COc1ccc(CCC2CCCC(CCc3ccc(OC)cc3)N2C[C@@H](O)CO)cc1.Cl` (stereo in doubt) the Hill coefficient was 1.1 (KCNH2; potassium current, inhibitor; HEK293).
For `Cc1c(COC(=O)[C@@H]2[C@H](/C=C(\Cl)C(F)(F)F)C2(C)C)cccc1-c1ccccc1` (racemic), “enzyme contribution to CLint” read 19.2% (human CYP2C9; IVIVE from expressed enzymes; human, liver, in vivo scaled; 0.1 µM, age-specific).
The inhibition of `COc1ccc2cc1Oc1ccc(cc1)C[C@H]1c3cc(c(OC)cc3CCN1C)Oc1c(OC)c(OC)cc3c1[C@H](C2)N(C)CC3` is reported as 72.8% (SLC47A1; transport activity, inhibitor; 10 µM, 10 (unit not given), added: metformin).
Under “enzyme contribution to CLint”, `CC(C)=CC1C(C(=O)OC(C#N)c2cccc(Oc3ccccc3)c2)C1(C)C` (stereo not drawn) is recorded as 7.39% (human CYP2C9; IVIVE from expressed enzymes; human, liver, in vivo scaled; age-specific).
`Cc1oncc1C(=O)Nc1ccc(C(F)(F)F)cc1` has an inhibition of 78.3% (SLC47A1; transport, inhibitor; transiently transfected cells; 100 µM, 10 (unit not given), added: metformin).

A few entries again:
For `CCOc1ccc2cc(-c3nn(CC4CCN(C)CC4)c4ncnc(N)c34)ccc2n1`, the EC50 was 10 µM (KCNH2; thallium flux, inhibitor).
The inhibition of `CC(C)(O)c1ccccc1CC[C@@H](SCC1(CC(=O)O)CC1)c1cccc(/C=C/c2ccc3ccc(Cl)cc3n2)c1` is reported as 25% (CYP1A2; inhibitor; human liver microsomes; 10 µM, pH 7.4, added: phenacetin).
With `CCN(CC)CCCC(C)Nc1ccnc2cc(Cl)ccc12` (stereo not drawn) the inhibition was 114% (SLC47A1; transport, inhibitor; transiently transfected cells; 100 µM, 10 (unit not given), added: metformin).
For `CC(C)CC(=O)OC[C@H]1O[C@@](C#N)(c2ccc3c(N)ncnn23)[C@H](O)[C@@H]1O`, “Papp A to B” read 0.187 ×10⁻⁶ cm/s (ABCB1 (Homo sapiens, UniProt P08183); Caco-2; 9 µM, 2 h).
